# Measured values of several laboratories.
# Every numbered part comes from another study and shows a few of its results, in no order.

# Sample 1
# Target: RNA binding protein fox-1 homolog 2, RRM domain, GST-SBP tag (RBFOX2, Homo sapiens, UniProt O43251-10, residues 100-194)
# Technique: RNA Bind-n-Seq
# Form: RNA
# Matrix: in vitro
# Tested at: 365 nM
# Notes: natural RNA segment, single round, ends assumed
# Reference: no-protein control
# Direction: higher = stronger binding
# All sequences stand within: GGGAGUUCUACAGUCCGACGAUC … UGGAAUUCUCGGGUGCCAA
# Construct (chain): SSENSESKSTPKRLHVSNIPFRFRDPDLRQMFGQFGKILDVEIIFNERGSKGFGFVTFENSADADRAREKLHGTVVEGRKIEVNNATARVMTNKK
Strand,RBNS enrichment (R)
GGCUUCUCGGGAGGCCAGCCUCUACCAUGGCCGCCUGUUUUGCCUCAGACCAAACUAAGUGCUUCCAGAUCCUUUCGGUGCAAUUUCAGAGCUGUGCCAGAUGCUAGACA,0.414
UAGGAUCUUAAGGCCCUGGCAGAGCUCAGAGACGCGCAGCAUUACCAAUACUACUGUGUGUACCAAGUGUGGAGGGGCUGGUCACAUUGCUUCUGAUUGCAAAUUUCAGA,0.509
GCCAGGGUUGUGCUUUCUAGCAAAUAUGCUGUUAUGUCCAGAAAUUGUGUGUGCAAGAAAACUAGGCAAUGUACUCUUCCGAUGUUUGUGUCACACAACACUGAUGUGAC,0.717
GAAUUGUUUUAUGUACACUUGUCAGGCAGAAAAGGUAGUGACCGGCCCGGCGUGGGCACACAGACAGCCCGCUUUGUUCUUUCAUUUCCUCCAGCACUUUCUUUCCGCCU,0.242
AGUUUCCUGAAGGAUGGAGGGAAUCUUUGUAAACAGAGAUCCACUUGCCAGGAUAAAAAUGUGGCCACCGCUAGAUUUCUCUUACCUACCCGUUGCAACUGGUCCCAGAC,0.469
CAGUCAGCCCAGGUCUCUAGAGUGUCCAGCAGAGGAUGGAGCCCUCGGGAUGUUUCAGCUCACACAUCCUUGAGUGACUUCCCAUAUGUGUGUGGGGCUGAAGCGGCUUC,0.61
GCGCUACGCCCAGAUCCAGCUGGACAAGCUCAAGAAAACCAAUGUCUUCAAUGCCACCUUCCACAUCUGGCACAGCGGACAGUUUGGCACAAUCAAUAAUUUCAGACUGG,0.354
UCCUUGAGUGCCCAGGCUUGAAGCACAUUGGCUGUCAUUCUGAUGUGACUCGAGAUUGCAGUUGCAACUUGGCAGCUUUUUUCUACUGGACAGGAAGAUGGCAGAAGCUA,0.358
UAAUGGUUGAACCAUCUUUUCAGCCCAAACAGUUUAUUUCUAAAAAGUAGAUUUAAUGCUAGGGGCCAUUAUGCAGGCUUGUAAUCCUAGAUGUUGGGAUGCCGGGGCAG,0.516
CACUUCUCUUUCCCAGCCCUAGUUCUGGGUUCCCCAGUGGGGCAAGGGGUGGUGGAGGCAGUGCCCAUGCUGGGCUGAGCCUGCAGUUUUUGUGAGCUCUGGGCUUGUCU,0.396
UAGUUUGUGUACAUAUAUACACAUAUAUAUUUUGCACUACACAAACGAUAACAUUUUAAGGACUAAUAUUGCUGAUACUUGAAUAAUCAAUCUCUACUAGGUUAUAAGUA,0.503
CCUCUCCCAUCUGCCAGUCUCUCUGUGCCCUCGUGUCUGAGUGCUGUUUGCCCACCUUUUCCAGGUGUAAGAGGCAGAGAGCCUGGACAGCUUUCUCUCUCAGCCAUUGU,0.5

# Sample 2
# Target: RING finger protein unkempt homolog, zinc fingers 1-6, GST-SBP tag (UNK, Homo sapiens, UniProt Q9C0B0, residues 30-357)
# Technique: RNA Bind-n-Seq
# Form: RNA
# Matrix: in vitro
# Tested at: not given
# Notes: RNA with constant flanks, human and mouse sites, ends assumed
# Reference: input RNA pool
# Direction: higher = stronger binding
# All sequences stand within: GGGAGUUCUACAGUCCGACGAUC … CAACAGAGGAUUGAGCAUCA
# Construct (chain): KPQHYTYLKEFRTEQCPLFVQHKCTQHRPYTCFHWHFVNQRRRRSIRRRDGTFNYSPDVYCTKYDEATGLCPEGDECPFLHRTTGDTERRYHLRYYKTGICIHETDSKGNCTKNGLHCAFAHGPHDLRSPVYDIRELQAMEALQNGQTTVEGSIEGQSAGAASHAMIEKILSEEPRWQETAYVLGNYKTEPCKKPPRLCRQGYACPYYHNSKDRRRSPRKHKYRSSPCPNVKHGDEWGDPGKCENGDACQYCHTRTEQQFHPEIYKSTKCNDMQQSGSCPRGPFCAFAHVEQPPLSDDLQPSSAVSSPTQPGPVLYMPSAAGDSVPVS
Strand,bound/input enrichment [ratio]
GACGCUGUGGCAGCUAUGGCAAAAGAUAAAGCAAAUAUGCAACACAGAUAUGUGGAGCUCUUCUUGAAUUCUACCGCAGGGACAAGUGGAGGAGCUUAUGAUCAUAGCUAUGUAGAGCUC,0.284
GCUGGCCAAGAGGAGCUUCUCCAGUCAGAGACCCGUGGUUGACAGACAGAGCCGAAAGCUGGAGCCGGGAGGGUUUGGGGAGAAGCCCGUUAGGCCAGGUGGUGGUGACACCUCCCCUCG,0.106
UUACAAAGCCAUCUUUACAUGCAUUAAACGAGGGCUACAACAAUAUUGUUUUACAAAUACUAGCACUUUUUUUUCUGUUAUGUACUUAGUGUUAGAGGGUCAAAAUAAUCUUUCUGCUUA,0.949
CAAGAAACAGAAGUUGCCAUUGGCUACUGCUUGGCCUUUGAGCACAGAGAAAAAAUGUUUAAUAGACUGAGGAUCGAGUCAAAGGACUUACUGUUGUACAGCAAUGUUAAGAAGUGAACA,0.181
UUCCCAAGACCUUUAUAGGUGAUUUUGUUUUCUGGGCUCCUUAACUUCAUAAAUAGCUAGUAUCUUCCAGCAGUAGUAACAGUCUGGAUAACUUCUUCCAUAUCCCUCCCUCUUUGUUUU,4.72
GACAGCUUGCUCAGUAACUUGGGGUGCCAGUCUGCCUCUCAUGUAGGGCCCUUCAUCGAUAGCUACCGCUGCUUCCAACCAAAGCAGGAGGGGGCCUUCACCUGCUGGUCAGCAGUCACU,0.0696
AAAUUAGUGGGCAAAGAAACAUUCUAUGUUGGAGCUGCAAAGACAAAAGCGACCAUAAAUAUAGACGCUAUCAGUGGUUUUGCUUAUGAAUAUACUCUGGAAAUUAAUGGGAAAAGUCUC,0.769
UCCCCUUAUGACCAGGCAGCUUGGAUCUUAAAAGCAAGAGCGCUAACAGAAAUGGUAUACAUAGAUGAAAUUGAUGUAGAUCAGGAAGGAAUUGCAGAAAUGAUGCUGGAUGAAAAUGCU,0.569
GCAGAACUCCUAAAAAAUGCAGAUGAAUUAGUCAAACAGAAAAUUCAUCCCACAUCAGUUAUUAGUGGCUAUCGACUUGCUUGCAAGGAAGCAGUGCGUUAUAUCAAUGAAAACCUAAUU,0.172
CAGCCGCUCAUGUACGUGAAAGUGCUCAUCCAGGUGGGAUAUGAGCCUCUUCCUCCAACAAUAGGACGAAAUAUUUUUGGGCGACAAGUAUGUCAGCUUCCUGGCCUCUUUUGCUAUGCU,0.689
CUGCUUUUGGUGCUGCCUGUUGUGGAAGCAGUAGAAGCCGGUGAUGCAAUCGCCCUUUUGUUAGGUGUGGUUCUCAGCAUUACAGGCAUUUGUGCCUGCUUGGGGGUAUAUGCACGAAAA,0.183

# Sample 3
# Target: Ras GTPase-activating protein-binding protein 1, full length (G3BP1, Homo sapiens, UniProt Q13283)
# UniProt Q13283, sequence (whole entry, looked up): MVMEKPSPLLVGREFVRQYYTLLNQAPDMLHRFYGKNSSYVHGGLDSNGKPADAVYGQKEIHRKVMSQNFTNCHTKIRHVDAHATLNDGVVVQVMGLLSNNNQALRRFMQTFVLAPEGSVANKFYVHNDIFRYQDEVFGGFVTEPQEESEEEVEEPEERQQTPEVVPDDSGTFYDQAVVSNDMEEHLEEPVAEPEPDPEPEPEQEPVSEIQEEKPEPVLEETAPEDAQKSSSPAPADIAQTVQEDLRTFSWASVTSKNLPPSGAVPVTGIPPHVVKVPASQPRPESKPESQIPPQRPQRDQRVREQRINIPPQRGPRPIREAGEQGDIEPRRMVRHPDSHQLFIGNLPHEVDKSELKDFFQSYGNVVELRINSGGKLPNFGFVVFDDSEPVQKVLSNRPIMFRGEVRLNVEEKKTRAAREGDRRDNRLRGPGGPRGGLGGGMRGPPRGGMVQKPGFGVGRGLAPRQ
# Technique: RNA Bind-n-Seq
# Form: RNA
# Matrix: in vitro
# Tested at: 200 nM
# Notes: whole 134-nt RNA, ends assumed
# Together with: 150 mM LiCl
# Reference: input library
# Direction: higher = stronger binding
# Library: 7-deaza-guanosine replaces G
# All sequences stand within: GGGAGUUCUACAGUCCGACGAUC … UGGAAUUCUCGGGUGUCAAGG
Strand,log2 enrichment
CCUGUGCUACACAUCGUAUGUACCGAAUCGGGGCCCCCCGGCCCCCCGGGGCCCCCCGGGAAAGUAUUAUGUUACGCCGUUCGGAUCUGC,0.0305
UGGAACAGCAGCUGCCACUCAGGCGUAAUUCCCACCUAGAGGAGAGUUUCACAUCCACCGAAGAAUCUUCCGAAGAAAAUGUCAACUUUU,0.552
UAACUUUAGAGGAGGAUCUGAUGGAUAUGGCAGUGGUCGUGGAUUUGGGGAUGGCUAUAAUGGGUAUGGAGGAGGACCUGGAGGUGGCAA,-0.267
GUCCUGUGCUACACAUCGUAUGUACCGAAUCGGGGAGGGGUUUUUUUGGGGAAAGGGGAAAGUAUUAUGUUACGCCGUUCGGAUCUGCAC,0.657
UAACUGUAGAGGAGGAUCUGAUGGAUAUGGCAGUGGACGUGGAUUUGGGGAUGGCUAUAAUGGGUAUGGAGGAGGACCUGGAGGUGGCAA,0.239
CCUCAAGUCCUGUGCUACACAUCGUAUGUACCGAAUCGGAAGGGAAGGAAGGGAAAGUAUUAUGUUACGCCGUUCGGAUCUGCACUUCCA,-0.441
CACAGACAACACGCACAAACACAGACACAGAGGGAAGGGGUUGGGAUGGGGACAGGGUGCACAGCAGGGCGGGGUAGGACCCCAGCCCCU,0.417
AAGUCCUGUGCUACACAUCGUAUGUACCGAAUCGGGUUUUGGGGUUUUGGUUUUGGGAAAGUAUUAUGUUACGCCGUUCGGAUCUGCACU,-0.209
UCCUGUGCUACACAUCGUAUGUACCGAAUCAAACCCAAAUUUUUUUAAACCCCCCCAAAAAAGUAUUAUGUUACGCCGUUCGGAUCUGCA,1.44
AAGUCCUGUGCUACACAUCGUAUGUACCGAAUCAAACCCAAACCCCCAAACCCAAAAAAGUAUUAUGUUACGCCGUUCGGAUCUGCACUU,0.233
CCUGUGCUACACAUCGUAUGUACCGAAUCAAACCCCCCCAAACCCCCCCAAACCCCCAAAAAAGUAUUAUGUUACGCCGUUCGGAUCUGC,0.297

# Other studies, line by line
Molecule,organism,assay,test system,conditions,scale,measurement,result
ASPLKKLFTSTGL,Saccharomyces cerevisiae,"peptide binding, yeast competitive growth sequencing","peptide, cyclin F-Cln2 fusion","concentration not given, library 1, Cln2-subtracted",direction not given,binding score,0.528
